Assay results of several laboratories.
Parts stem from different laboratories: compare values within a part only.
Chain of UniProt Q9P1W9 (whole entry, looked up): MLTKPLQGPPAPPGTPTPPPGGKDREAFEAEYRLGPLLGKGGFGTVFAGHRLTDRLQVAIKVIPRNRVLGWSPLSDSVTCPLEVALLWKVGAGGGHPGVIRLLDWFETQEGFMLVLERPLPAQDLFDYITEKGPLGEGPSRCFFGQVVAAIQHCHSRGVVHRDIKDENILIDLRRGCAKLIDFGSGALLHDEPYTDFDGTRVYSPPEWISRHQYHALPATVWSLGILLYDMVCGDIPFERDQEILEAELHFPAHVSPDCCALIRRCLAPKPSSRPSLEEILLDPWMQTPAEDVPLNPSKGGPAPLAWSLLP
Chain of UniProt Q9UQB9 (whole entry, looked up): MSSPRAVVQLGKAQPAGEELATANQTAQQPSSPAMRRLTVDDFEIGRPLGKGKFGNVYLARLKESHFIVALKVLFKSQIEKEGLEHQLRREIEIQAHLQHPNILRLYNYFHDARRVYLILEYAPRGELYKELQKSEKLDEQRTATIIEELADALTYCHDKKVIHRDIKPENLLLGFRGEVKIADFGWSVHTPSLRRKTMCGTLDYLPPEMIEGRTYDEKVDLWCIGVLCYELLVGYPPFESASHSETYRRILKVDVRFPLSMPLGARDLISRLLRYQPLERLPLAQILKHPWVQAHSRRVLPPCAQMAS
Chain of UniProt O60285 (whole entry, looked up): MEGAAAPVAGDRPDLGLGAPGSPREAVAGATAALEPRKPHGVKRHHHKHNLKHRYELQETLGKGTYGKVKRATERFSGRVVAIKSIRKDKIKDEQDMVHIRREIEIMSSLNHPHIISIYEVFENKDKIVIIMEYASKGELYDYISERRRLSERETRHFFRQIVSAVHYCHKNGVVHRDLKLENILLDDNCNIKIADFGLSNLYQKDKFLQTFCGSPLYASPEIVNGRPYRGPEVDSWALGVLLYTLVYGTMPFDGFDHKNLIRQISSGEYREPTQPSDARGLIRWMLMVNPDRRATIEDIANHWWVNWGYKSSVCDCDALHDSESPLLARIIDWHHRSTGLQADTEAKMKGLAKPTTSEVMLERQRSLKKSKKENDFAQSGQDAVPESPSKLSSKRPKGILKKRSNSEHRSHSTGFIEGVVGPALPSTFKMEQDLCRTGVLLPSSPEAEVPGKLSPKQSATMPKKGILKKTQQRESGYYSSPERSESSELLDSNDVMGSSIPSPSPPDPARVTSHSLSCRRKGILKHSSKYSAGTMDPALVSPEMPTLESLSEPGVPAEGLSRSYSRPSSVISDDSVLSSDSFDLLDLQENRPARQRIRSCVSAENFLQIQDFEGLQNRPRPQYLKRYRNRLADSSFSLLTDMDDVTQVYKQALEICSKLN
Chain of UniProt Q15746 (whole entry, looked up): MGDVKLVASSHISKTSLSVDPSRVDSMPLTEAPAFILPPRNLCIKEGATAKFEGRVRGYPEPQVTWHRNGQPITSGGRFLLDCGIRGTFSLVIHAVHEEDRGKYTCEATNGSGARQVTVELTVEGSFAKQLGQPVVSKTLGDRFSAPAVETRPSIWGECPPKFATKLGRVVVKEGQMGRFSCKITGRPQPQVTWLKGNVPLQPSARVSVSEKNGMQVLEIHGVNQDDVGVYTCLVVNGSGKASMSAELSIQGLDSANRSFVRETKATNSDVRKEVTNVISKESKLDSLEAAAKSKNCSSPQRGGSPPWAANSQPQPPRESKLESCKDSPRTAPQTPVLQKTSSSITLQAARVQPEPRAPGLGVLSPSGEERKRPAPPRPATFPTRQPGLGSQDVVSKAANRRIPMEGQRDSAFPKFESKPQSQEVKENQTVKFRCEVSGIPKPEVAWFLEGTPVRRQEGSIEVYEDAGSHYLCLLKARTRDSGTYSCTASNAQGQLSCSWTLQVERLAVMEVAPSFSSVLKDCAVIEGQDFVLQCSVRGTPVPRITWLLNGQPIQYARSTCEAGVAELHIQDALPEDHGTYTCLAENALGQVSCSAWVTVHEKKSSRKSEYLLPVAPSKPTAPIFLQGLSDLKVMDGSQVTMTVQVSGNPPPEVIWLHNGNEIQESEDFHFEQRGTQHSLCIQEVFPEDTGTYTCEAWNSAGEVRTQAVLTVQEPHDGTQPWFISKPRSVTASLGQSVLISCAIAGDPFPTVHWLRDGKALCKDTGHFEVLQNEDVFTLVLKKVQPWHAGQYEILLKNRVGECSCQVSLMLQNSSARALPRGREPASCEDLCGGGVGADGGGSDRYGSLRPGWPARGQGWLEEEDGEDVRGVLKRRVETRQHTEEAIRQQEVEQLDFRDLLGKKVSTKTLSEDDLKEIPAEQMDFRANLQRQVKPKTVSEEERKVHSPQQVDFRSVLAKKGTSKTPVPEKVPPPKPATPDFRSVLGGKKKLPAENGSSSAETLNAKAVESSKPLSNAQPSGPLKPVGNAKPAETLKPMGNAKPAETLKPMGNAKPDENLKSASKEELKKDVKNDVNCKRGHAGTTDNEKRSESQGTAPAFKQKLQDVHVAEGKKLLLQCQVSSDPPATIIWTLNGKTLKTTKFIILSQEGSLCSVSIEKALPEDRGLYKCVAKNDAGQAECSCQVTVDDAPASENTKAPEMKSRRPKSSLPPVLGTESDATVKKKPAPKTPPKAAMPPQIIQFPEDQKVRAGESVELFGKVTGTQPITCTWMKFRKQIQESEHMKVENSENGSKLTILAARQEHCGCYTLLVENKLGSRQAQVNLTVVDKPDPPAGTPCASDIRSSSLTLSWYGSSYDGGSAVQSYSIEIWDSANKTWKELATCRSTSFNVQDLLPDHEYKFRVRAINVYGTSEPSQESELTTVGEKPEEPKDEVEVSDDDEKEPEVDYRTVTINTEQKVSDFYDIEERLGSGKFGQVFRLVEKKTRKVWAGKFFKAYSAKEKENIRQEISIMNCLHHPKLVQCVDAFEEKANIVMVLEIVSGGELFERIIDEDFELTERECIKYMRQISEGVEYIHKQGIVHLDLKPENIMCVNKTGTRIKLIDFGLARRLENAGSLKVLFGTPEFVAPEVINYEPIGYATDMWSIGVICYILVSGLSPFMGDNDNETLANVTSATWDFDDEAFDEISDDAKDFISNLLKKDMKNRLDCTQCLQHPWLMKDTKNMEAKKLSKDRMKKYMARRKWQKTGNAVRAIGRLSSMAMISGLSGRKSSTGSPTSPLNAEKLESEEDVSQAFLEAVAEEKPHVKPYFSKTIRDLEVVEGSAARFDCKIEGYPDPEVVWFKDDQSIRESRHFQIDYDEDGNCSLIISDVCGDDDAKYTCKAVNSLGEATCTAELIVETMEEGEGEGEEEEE

Study 1 — Compound: COc1ccc(COc2ccc(Cc3cnc(N)nc3N)cc2OC)cc1; read-out: enzyme activity; action: inhibitor; tested at: 0.5 µM; relative to: control
For MYLK (Homo sapiens, UniProt Q15746): remaining activity read 95.7%.
The remaining activity was 101% (EPHA7 (Homo sapiens, UniProt Q15375)).
The remaining activity was 102% (SRPK3 (Homo sapiens, UniProt Q9UPE1)).
It gave 102% for remaining activity (PRKCG (Homo sapiens, UniProt P05129)).
For Aurora kinase C (AURKC, Homo sapiens, UniProt Q9UQB9): remaining activity read 97.5%.
GRK2 (Homo sapiens, UniProt P25098) — remaining activity: 96.1%.
It gave 95.3% for remaining activity (PAK2 (Homo sapiens, UniProt Q13177)).
RPS6KA1 (Homo sapiens, UniProt Q15418) — remaining activity: 92.7%.
For NUAK1 (Homo sapiens, UniProt O60285): remaining activity read 106%.
SGK1 (Homo sapiens, UniProt O00141) — remaining activity: 97.9%.
It gave 107% for remaining activity (PIM2 (Homo sapiens, UniProt Q9P1W9)).
GRK6 (Homo sapiens, UniProt P43250) — remaining activity: 99.8%.

Study 2 — SMILES: C=CCc1ccc(O)c(-c2ccc(O)c(CC=C)c2)c1; read-out: chloride current; technique: whole-cell voltage clamp; added: 4 µM Ca2+
ANO1 del476-501/F628A: Anoctamin-1 (ANO1, Homo sapiens, UniProt Q5XXA6, del476-501/F628A)
Chain of UniProt Q5XXA6 (whole entry, unmodified, looked up): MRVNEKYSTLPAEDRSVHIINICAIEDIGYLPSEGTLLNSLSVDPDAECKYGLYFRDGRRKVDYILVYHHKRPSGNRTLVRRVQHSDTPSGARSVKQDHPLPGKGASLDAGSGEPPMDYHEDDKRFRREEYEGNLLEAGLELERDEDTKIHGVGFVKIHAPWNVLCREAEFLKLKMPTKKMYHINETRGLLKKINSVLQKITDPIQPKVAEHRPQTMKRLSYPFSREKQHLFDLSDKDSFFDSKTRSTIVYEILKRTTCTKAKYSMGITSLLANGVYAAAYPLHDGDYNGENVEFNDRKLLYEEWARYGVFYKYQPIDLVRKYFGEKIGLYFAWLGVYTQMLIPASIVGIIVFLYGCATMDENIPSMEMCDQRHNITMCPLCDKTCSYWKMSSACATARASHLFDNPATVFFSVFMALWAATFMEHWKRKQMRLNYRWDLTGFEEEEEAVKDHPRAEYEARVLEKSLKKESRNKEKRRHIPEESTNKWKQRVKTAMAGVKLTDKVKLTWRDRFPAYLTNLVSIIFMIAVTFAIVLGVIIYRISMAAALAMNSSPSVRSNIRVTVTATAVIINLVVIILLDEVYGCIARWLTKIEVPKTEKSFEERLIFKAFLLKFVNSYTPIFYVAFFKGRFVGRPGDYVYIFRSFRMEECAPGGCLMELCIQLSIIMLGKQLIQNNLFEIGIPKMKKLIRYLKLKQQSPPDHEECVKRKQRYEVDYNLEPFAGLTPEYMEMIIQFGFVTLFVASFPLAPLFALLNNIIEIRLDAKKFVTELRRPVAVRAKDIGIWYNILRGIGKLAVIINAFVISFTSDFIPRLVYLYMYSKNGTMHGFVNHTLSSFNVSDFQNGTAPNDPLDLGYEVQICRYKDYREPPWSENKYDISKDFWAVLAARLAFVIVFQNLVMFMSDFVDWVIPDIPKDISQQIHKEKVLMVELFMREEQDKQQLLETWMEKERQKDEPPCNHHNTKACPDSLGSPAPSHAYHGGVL
ANO1 del476-501: Anoctamin-1 (ANO1, Homo sapiens, UniProt Q5XXA6, del476-501)
For ANO1 del476-501/F628A; 1 µM, concentration-response at 20 mV: normalized current read 0.19.
It gave -0.343 for normalized current (ANO1 del476-501; 1 µM, wild type, I-V at -40 mV).
It gave -0.24 for normalized current (ANO1 del476-501/F628A; 30 µM, I-V at -60 mV).
ANO1 del476-501/F628A; 3 µM, I-V at 0 mV — normalized current: -0.0053.
For ANO1 del476-501/F628A; 1 µM, I-V at 20 mV: normalized current read 0.138.
The normalized current was -0.495 (ANO1 del476-501; 1 µM, wild type, concentration-response at -60 mV).

Study 3 — species: human; medium: microsomes or S9; tested at: 2 µM; time: 0.5 h
With O=C(c1cc2ncccn2n1)N(c1ccccc1)c1ccccc1 the remaining compound was 26.2%.
The remaining compound of Cc1ccc(N2N3C(=O)OC4(C)CCC(C2(C)C)C34C)cc1 (stereo not drawn) is reported as 0.174%.
Clc1ccc(C2=Nc3c(nnn3Cc3ccccc3)C3=NCCN23)cc1 has a remaining compound of over 100%.
For Cc1ccc2c(c1)N(C(C)C)N=C(C(=O)N1CCOCC1)S2(=O)=O, the remaining compound was 92%.
OCCN1CCN(Cc2nc(O)c3ccccc3n2)CC1 has a remaining compound of over 100%.
N#Cc1cnn2c(O)cc(Cc3ccccc3)nc12 has a remaining compound of over 100%.
With COc1c2c(cc3c1OCO3)CCN(C)C(C(C)=O)=C2 the remaining compound was 17.1%.
The remaining compound of Oc1cccc(-c2nc3c(s2)Cc2ccccc2-3)c1 is reported as 1.47%.
For Cc1c(S(=O)(=O)N2CCN(CC(=O)NCc3ccccc3)S(=O)(=O)CC2)sc2ccc(Cl)cc12, the remaining compound was 5.36%.
Cc1ccc(CN2CCC=C(CCC(=O)O)C2=O)cc1 has a remaining compound of 92.6%.
For Cc1ccc(-c2nc3[nH]c(CNc4ccc(F)cc4)cc(=O)n3n2)cc1, the remaining compound was 0.268%.

Other studies, line by line
O=C(Nc1cccnn1)N1CC(CC=Cc2cncc(Oc3ccc(C(F)(F)F)cn3)n2)C1 has a remaining binding of 81% (Tyrosine-protein kinase ABL1 (ABL1, Homo sapiens, UniProt P00519, E255K); KINOMEscan; 1 µM, E255K mutant, phosphorylated; relative to: control).

Excerpt of the above (study 3):
For Cc1ccc2c(c1)N(C(C)C)N=C(C(=O)N1CCOCC1)S2(=O)=O, the remaining compound was 92%.
OCCN1CCN(Cc2nc(O)c3ccccc3n2)CC1 has a remaining compound of over 100%.
N#Cc1cnn2c(O)cc(Cc3ccccc3)nc12 has a remaining compound of over 100%.
The remaining compound of Oc1cccc(-c2nc3c(s2)Cc2ccccc2-3)c1 is reported as 1.47%.
